Results from different studies.
Compare with care: the assays were run in different laboratories. Values joined by “and” are separate records of one study, mostly repeats; a detail may differ. ± gives the spread as reported.

C[C@@H](O)CCOC(=O)C[C@@H](C)O has a metabolite level of -4.67 ± 0.65 µmol/L (measured: C5-OH/C3-DC acylcarnitine; human, plasma; 60 min, log2-transformed values).
Cc1cn(-c2ccc3n(c2=O)CCN([C@@H](C)[C@@H]2CC[C@H](c4cc(F)c(Cl)cc4C(F)(F)F)O2)C3=O)cn1: “change from baseline” -26.8% (measured: amyloid beta 40; human, non-elderly, cerebrospinal fluid; 100 mg once daily, 14 days, sampled 336 h; reference: placebo).
With CCN(O)N=Nc1ccc(S(=O)(=O)Nc2cc(C)on2)cc1 the inhibition was 88.8% (paw oedema; rat, carrageenan oedema; oral, 100 mg/kg, 4 h after carrageenan; reference: vehicle).
COc1cc(O)c(CC=C(C)C)c(O)c1C(=O)/C=C/c1ccc(O)cc1 has a blood glucose of 201 mg/dL (glucose tolerance test; Tac:SW mice (male, germ-free, high-fat diet); in diet, 60 mg/kg per day, 120 min after glucose, after 10 weeks).
Under “forelimb grip strength”, COc1ccc2c(c1)CN(Cc1ccc(C(=O)O)cc1)CCS2 is recorded as 0.164 ± 0.007 kgf (exercised mdx mice; 10 mg/kg, 4 weeks).
Cc1cc(C)c(CNC(=O)c2cc(Cl)c3c(c2C)O[C@@](C)([C@H]2CC[C@H](N(C)C)CC2)O3)c(=O)[nH]1: “best overall response NE” 5% (relapsed/refractory NHL patients, total incl. ATLL and CTCL; oral, dose not given).
Under “log2 fold change”, N#Cc1ccc2c(-c3ccncc3)c(-c3ccc(F)cc3)nn2c1 is recorded as -0.188 (kinase binding, competitor, MIB/MS competition, measured: HST7; Candida albicans cell lysate; 10 µM; reference: DMSO).
Under “best response progressive disease”, CN[C@@H](C)C(=O)N[C@H]1CN(S(=O)(=O)c2cccc(S(=O)(=O)N3CC[C@H]4CC[C@@H](C(=O)NC(c5ccccc5)c5ccccc5)N4C(=O)[C@@H](NC(=O)[C@H](C)NC)C3)c2)CC[C@H]2CC[C@@H](C(=O)NC(c3ccccc3)c3ccccc3)N2C1=O is recorded as 40% (RECIST 1.1; advanced pancreatic cancer patients; dose not given, efficacy-evaluable, with: AG).
NCC(=O)Nc1cncc(-c2nn3c(=O)cc(N4CCNCC4)nc3s2)c1 — result for “inhibition of platelet aggregation”: -3.33% (ADP-induced platelet aggregation, light transmission aggregometry; human stable CAD patients on aspirin, platelets ex vivo; 0.04 mg/kg, 90 min post dose, with: 20 µM ADP; reference: placebo difference).
CC[C@H](CC[C@@H](C)[C@H]1CC[C@H]2[C@@H]3CC=C4C[C@@H](O[C@@H]5O[C@H](CO)[C@@H](O)[C@H](O)[C@H]5O)CC[C@]4(C)[C@H]3CC[C@]12C)C(C)C — result for lipid content: “decreased” (Oil Red O; 3T3-L1, mouse; 5 µM, day 8).
For COc1ncnn2ccc(-c3cnc4nc(C)n(Cc5nnc([C@@H](C)F)o5)c4c3)c12, “best overall response MLFS” read 0% (relapsed or refractory AML, MDS; dose not given, splicing factor mutation-negative).
The sarcomere length of O=C(O)CNC(=O)Cc1ccccc1 is reported as 1.72 µm (ventricular cardiomyocytes, C57BL/6 mouse; dose not given, 0.06 s).
Under “best response not assessed”, Cc1cc(C)c(CNC(=O)c2cc(Cl)c3c(c2C)O[C@@](C)([C@H]2CC[C@H](N(C)C)CC2)O3)c(=O)[nH]1 is recorded as 8% (IWG criteria; relapsed/refractory PTCL-NOS patients; dose not given).
The sarcomere length of CC(C)NCC(O)c1ccc(O)c(O)c1 (stereo not shown) is reported as 1.69 µm (ventricular cardiomyocytes, C57BL/6 mouse; dose not given, 0.452 s).
For CN[C@@H]1COc2c(S(=O)(=O)NC(=O)Nc3c4c(cc5c3CCC5)CCC4)cnn2C1, the inhibition was 101% (measured: IL-18; human participants, whole blood ex vivo; 900 mg twice daily, multiple doses, 8 h, IL-18, circulating, adjusted for, with: LPS/ATP; reference: baseline).
OC(CCN1CCCCC1)(c1ccccc1)C1CC2C=CC1C2 (stereo not shown) — result for “change in EEG Beta1-power Fz-Cz”: 7.6% (resting-state EEG; healthy elderly humans; oral, 4 mg, eyes open, LS mean; reference: baseline).
C[C@H]1C[C@H]2CSC(N)=N[C@@]2(c2nc(NC(=O)c3ccc(OC(F)F)cn3)cs2)CO1 — result for “percent change from baseline”: -43.9% (measured: total Aβ; healthy adults, plasma; 12 mg single dose, 24 h post-dose; reference: placebo).
Under “log2 fold change”, N#Cc1ccn2c(-c3ccncc3)c(-c3ccc(F)cc3)nc2c1 is recorded as 0.544 (kinase binding, competitor, MIB/MS competition, measured: YAK1; Candida albicans cell lysate; 10 µM; reference: DMSO).
O=C1CC[C@H](N2Cc3c(OCc4ccc(CN5CCOCC5)cc4)cccc3C2=O)C(=O)N1 — result for “exchange rate constant”: -0.02 h⁻¹ (deuterium-hydrogen exchange; aqueous phosphate buffer; pH 7.4, 37 °C).
C[C@H]1O[C@@H](O[C@H]2CC[C@@]3(C)[C@@H](CC[C@]4(C)[C@@H]3C=C[C@]35OC[C@@]6(CCC(C)(C)C[C@H]63)[C@@H](O)C[C@]54C)[C@]2(C)CO)[C@H](O)[C@@H](O[C@@H]2O[C@H](CO)[C@@H](O)[C@H](O)[C@H]2O)[C@H]1O gave a protein level of 1.17 and 0.445 and 1.12 (Western blot, measured: PGC-1α; chronic-plus-binge ethanol-fed mice, liver; dose not given, dose level -L, unit not given; reference: β-actin).
NC(=O)c1cnc2[nH]ccc2c1N[C@@H]1[C@@H]2CC3C[C@H]1C[C@@](O)(C3)C2: “change from baseline” -0.48% (flow cytometry, measured: CD8+ central memory T cells; Japanese healthy subjects, peripheral blood; oral, 10 mg twice daily, day 4).
CCN1CCN(Cc2ccc(Nc3ncc(F)c(-c4cc(F)c5nc6n(c5c4)[C@H](C)CCC6)n3)nc2)CC1 — result for “not evaluable response”: 0% (human advanced solid tumours; 100 mg, phase Ia monotherapy RECIST 1.1).
Cc1cnc(N2CC3(CCOCC3)C2)c(C(=O)Nc2ccc(C(=O)N3CCc4cc(C(=O)Nc5c(C)cccc5F)sc4-c4ccccc43)cc2)c1: “inhibition of CXCL8 AUC” 34% (human, RSV infection, nasal wash; dose not given, ITT-IS population; reference: placebo).
With C=CCn1c(=O)c2cnc(Nc3ccc(N4CCN(C)CC4)cc3)nc2n1-c1ccc2c(n1)[C@@](O)(CC)CC2 the tumour volume was 46.6% (BALB/c nude mouse, NCI-H1975 xenograft; oral, 80 mg/kg once daily ×18, day 18; reference: vehicle).
For N#Cc1ccc2c(c1)[C@H]1CCCN(C(=O)c3ccc4[nH]cnc4c3)[C@H]1C2, the plasma level was 315 nmol/L (measured: cortisol; human, Phase II trial; oral, 20 mg once daily, last treatment, HPA axis, mean).

A few entries again:
NCC(=O)Nc1cncc(-c2nn3c(=O)cc(N4CCNCC4)nc3s2)c1 — result for “inhibition of platelet aggregation”: -3.33% (ADP-induced platelet aggregation, light transmission aggregometry; human stable CAD patients on aspirin, platelets ex vivo; 0.04 mg/kg, 90 min post dose, with: 20 µM ADP; reference: placebo difference).
